Experimental data gathered from unrelated publications.
Each line is one published result; not all experiments were run side by side. ± marks the error that the study gave.

CN(C)C(=O)c1cc2cnc(Nc3ccc(-c4ccc5c(=O)cc(N6CCOCC6)oc5c4)cc3)nc2n1C1CCCC1 has a concentration of 29.5 ± 7.5 ng/g (BALB/c mouse, kidney; oral, 20 mg/kg, 24 h).
The concentration of O=c1cc(-c2ccc(O)cc2)oc2c([C@@H]3OC[C@H](O)[C@H](O)[C@H]3O)c(O)c([C@@H]3O[C@H](CO)[C@@H](O)[C@H](O)[C@H]3O)c(O)c12 is reported as 0.72 ng/g (UHPLC-MS/MS; C57BL/6J mouse, whole blood; oral, dose not given).
With CC(C)(C)c1cc(NC(=O)Nc2ccc(Oc3ccnc4[nH]c(=O)cnc34)cc2F)n(-c2ccccc2)n1 the concentration was 7.74 µM (nude mouse (female), tumor; oral, 20 mg/kg, 1 h after last dose, end of therapy).
With CN1CCCC1CCNS(=O)(=O)c1ccc2c(c1)CN(CC1CCCCC1)CC2 (stereo not shown) the concentration was 11.8 ng/g (THY-Tau22 mouse, pons/cerebellum; oral in diet, 0.002% in diet, 6 months, sampled at 8 p.m.).
With CSc1cc(Oc2ccnc3[nH]c(=O)cnc23)ccc1NC(=O)Nc1cc(C(C)(C)C)nn1-c1ccccc1 the concentration was 48.6 µM (NSG mouse (female), plasma; oral, 20 mg/kg, 1 h after last dose, end of therapy).
O=C(N[C@H](Cc1c[nH]c2ccccc12)C(=O)Nc1ccncc1)c1ccc(-c2ccc(F)c(Cl)c2)cc1F has a concentration of 0.17 µM (Swiss Webster mouse, female, fat; oral, 50 mg/kg, 2 h, 20% HPβCD vehicle).
The concentration of Cn1cc([C@H]2C[C@H]3CSC(N)=N[C@@]3(c3ccc(F)cc3F)CO2)cn1 is reported as 0.069 µM (mouse 129/SVE male, plasma; subcutaneous, 3 mg/kg, 3 h).
COc1ccc2c3c([nH]c2c1)[C@H](CC(C)C)N1C(=O)[C@H](CC(=O)NC(C)C)NC(=O)[C@@H]1C3 gave a concentration of 0 µM (wild-type mouse, male, serum; oral, 100 mg/kg, 0 h).
With O=S(=O)(c1ccc(-c2ccc3nccc(Nc4ccncn4)c3c2)cc1)N1CCOCC1 the concentration was 1980 ng/mL (female BALB/c mouse, plasma; intraperitoneal, 10 mg/kg, 0.08 h).
With O=C(N[C@H](Cc1c[nH]c2ccccc12)C(=O)Nc1ccncc1)c1ccc(N2CCN(c3ccc(F)cc3F)CC2)cc1F the concentration was 17.6 µM (Swiss Webster mouse, female, heart; oral, 50 mg/kg, 2 h, 20% Kolliphor vehicle).
